# Measured values collected from several papers.
# Parts stem from different laboratories: compare values within a part only. Values joined by “and” are separate records of one study, mostly repeats; a detail may differ.

# Block 1 — cell line: mouse MPNST tumor cells; method: high-content immunofluorescence imaging; item: nuclear SOX9; tested at: 10 µM; time: 12 h; setting: mean of 2 replicates; reference: DMSO control; reading: higher = more nuclear SOX9
Structure (SMILES),nuclear SOX9 intensity
Cc1ccnc(NS(=O)(=O)c2ccc(N)cc2)n1,67.7 % of DMSO
COc1cc(Cc2cnc(N)nc2N)c(C(C)C)cc1OC,128 % of DMSO
N#Cc1c(N)nc(SCc2ncc[nH]2)c(C#N)c1-c1ccc(O)cc1,104 % of DMSO
O=C(O)c1c[nH]c2cc(Cl)c(-c3ccc(C4(O)CCC4)cc3)cc12,107 % of DMSO
COc1ccccc1C(=O)Nc1cc2c(cc1N1CCNC[C@H]1C)n(C)c(=O)n2C,129 % of DMSO and 151 % of DMSO
CCN(CC)C(=O)c1ccc(O)c(OC)c1,103 % of DMSO
NC(=O)c1ccc(N(C(N)=O)c2c(F)cccc2F)nc1-c1ccc(F)cc1F,101 % of DMSO
Cc1ccc(C(=O)C(C)CN2CCCCC2)cc1 (stereo not drawn),91 % of DMSO
COc1ccc(CC(=O)NC(/N=C(\NC#N)Nc2cccc3ncccc23)C(C)(C)C)cc1OC (stereo not drawn),99.9 % of DMSO
CC(=O)N1CCN(C(=O)/C=C/c2ccc(Sc3ccccc3C(C)C)c([N+](=O)[O-])c2)CC1,122 % of DMSO
Cc1cc(O)c(C(=O)N[C@@H](C(=O)N[C@@H]2C(=O)N3C(C(=O)O)=C(CSc4nnnn4C)CS[C@H]23)c2ccc(O)cc2)cn1,90.3 % of DMSO
FC(F)(F)c1ccccc1-c1cc(C(F)(F)F)c2nc(C3=NOC4(CCCCC4)C3)[nH]c2c1,116 % of DMSO
COc1ccc(CNC(=O)c2sc3nc(C)cc(C)c3c2N)cc1,118 % of DMSO
COc1nc(C)nc(Cl)c1NC1=NCCN1,89.9 % of DMSO and 93.5 % of DMSO
CCCCOC(=O)c1ccc(N)cc1,95.8 % of DMSO
Clc1cccc(COc2cncc(N3CCNCC3)n2)c1,153 % of DMSO

# Block 2 — observed: enzyme activity; mode: inhibitor; tested at: 0.5 µM; reference: control
# Target: High affinity nerve growth factor receptor (NTRK1, Homo sapiens, UniProt P04629)
# Sequence of UniProt P04629 (whole entry, looked up): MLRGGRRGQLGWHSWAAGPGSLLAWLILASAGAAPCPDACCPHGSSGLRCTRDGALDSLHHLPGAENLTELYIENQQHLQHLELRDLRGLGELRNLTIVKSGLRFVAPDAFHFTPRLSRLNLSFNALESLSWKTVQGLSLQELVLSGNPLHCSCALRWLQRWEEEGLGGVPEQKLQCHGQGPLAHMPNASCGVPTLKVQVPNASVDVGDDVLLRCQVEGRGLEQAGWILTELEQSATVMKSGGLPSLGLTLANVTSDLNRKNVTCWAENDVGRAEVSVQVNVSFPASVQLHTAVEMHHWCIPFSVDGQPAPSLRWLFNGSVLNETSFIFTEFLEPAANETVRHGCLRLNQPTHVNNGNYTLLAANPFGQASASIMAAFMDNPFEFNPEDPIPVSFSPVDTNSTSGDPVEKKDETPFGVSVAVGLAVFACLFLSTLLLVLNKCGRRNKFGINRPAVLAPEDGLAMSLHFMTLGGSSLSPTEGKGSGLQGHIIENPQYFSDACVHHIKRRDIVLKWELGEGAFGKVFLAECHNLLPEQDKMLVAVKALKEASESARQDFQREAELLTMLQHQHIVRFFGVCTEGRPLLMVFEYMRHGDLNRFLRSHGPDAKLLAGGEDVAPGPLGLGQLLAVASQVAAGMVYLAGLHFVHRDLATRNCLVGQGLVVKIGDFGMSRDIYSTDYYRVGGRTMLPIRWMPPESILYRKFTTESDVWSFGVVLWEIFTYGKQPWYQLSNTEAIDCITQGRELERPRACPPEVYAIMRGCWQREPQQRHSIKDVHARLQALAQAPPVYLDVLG
Structure (SMILES),remaining activity [%]
Nc1nc(Nc2ccc(S(N)(=O)=O)cc2)nn1C(=S)Nc1c(F)cccc1F,31.7
CC(C)(C)c1nc2c3cc[nH]c(=O)c3c3cc(F)ccc3c2[nH]1,48.7
NC(=O)c1ccc(-c2nc(-c3ccc4c(c3)OCCO4)c(-c3ccccn3)[nH]2)cc1,90.7
c1cc(-c2cnn3cc(-c4ccc(OCCN5CCCCC5)cc4)cnc23)ccn1,105
CC(C)N(CCC(=O)c1ccc2ccccc2c1)Cc1ccccc1,94.8
COc1cc2c(Nc3ccc(Br)cc3F)ncnc2cc1OCC1CCN(C)CC1,104
O=C(c1ccccc1)c1ccc(N2CCOCC2)cc1O,99
O=C(O)/C=C/c1cc(Br)c(Br)c(Br)c1Br,91.1
O=c1c(-c2ccc(F)cc2)c(-c2ccncc2)[nH]n1-c1ccc(Cl)cc1,95.5
C[C@@H](N)[C@H]1CC[C@H](C(=O)Nc2ccncc2)CC1,101
O=C1NC(=O)/C(=C/c2ccc3c(c2)OC(F)(F)O3)S1,92.5
O=Nc1c(-c2c(O)[nH]c3ccccc23)[nH]c2ccccc12,12.4
N#CC(c1ccnc(NCCc2cccnc2)n1)c1nc2ccccc2s1 (stereo not drawn),106
Clc1ccc(Nc2nnc(Cc3ccncc3)c3ccccc23)cc1,98.7
O=C1c2ccccc2-c2nc3nnnn3nc21,76.6
FC(F)(F)c1ccc(/C=C/c2nc(COc3ccc(CCCCn4ccnn4)cc3)co2)cc1,103
CCN(CC)CCCCN1c2ccccc2Oc2ccc(Cl)cc21,99.8
NC(=O)c1cccc(-c2cc(Nc3ccc(OC(F)(F)F)cc3)ncn2)c1,96.6
CCCCc1c(-c2ccc(O)cc2)[nH]c2nccnc12,99.6
CNc1cc2c(Nc3cccc(Br)c3)ncnc2cn1,95.9
CC(C)n1cnc2c(Nc3cccc(Cl)c3)nc(NCCO)nc21,98.2
COc1cc2c(N3CCN(C(=O)Nc4ccc(OC(C)C)cc4)CC3)ncnc2cc1OCCCN1CCCCC1,48.1
N#C/C(=C(/N)SC1C=CC=CC1)c1cccc(C(O)c2ccncc2)c1 (stereo not drawn),97.9

# Block 3 — cell line: HaCaT; tested at: 100 µM; time: 18 h
Structure (SMILES),viability
CO/N=C(\C(=O)N[C@@H]1C(=O)N2C(C(=O)O)=C(C[N+]3(C)CCCC3)CS[C@H]12)c1csc(N)n1,107%
C[N+](C)(C)CCO,98.6%
Cc1cn(-c2cc(NC(=O)c3ccc(C)c(Nc4nccc(-c5cccnc5)n4)c3)cc(C(F)(F)F)c2)cn1,20.6%
C[C@H](Cc1cc2c(c(C(N)=O)c1)N(CCCO)CC2)NCCOc1ccccc1OCC(F)(F)F,117%
CC1=C(/C=C/C(C)=C/C=C/C(C)=C\C(=O)O)C(C)(C)CCC1,91.6%
Cc1nnc(C(=O)NC(C)(C)c2nc(C(=O)NCc3ccc(F)cc3)c(O)c(=O)n2C)o1,111%
Cc1onc(-c2ccccc2)c1-c1ccc(S(N)(=O)=O)cc1,93%
CN(C)CC[C@@H](c1ccc(Cl)cc1)c1ccccn1,114%
NCCc1ccc(O)c(O)c1,153%
O=c1cc(-c2ccc(O)cc2)oc2cc(O)cc(O)c12,77.4%

# Block 4 — observed: ligand displacement; tested at: 10 µM
# Target: Muscarinic acetylcholine receptor M4 (CHRM4, Homo sapiens, UniProt P08173)
# Sequence of UniProt P08173 (whole entry, looked up): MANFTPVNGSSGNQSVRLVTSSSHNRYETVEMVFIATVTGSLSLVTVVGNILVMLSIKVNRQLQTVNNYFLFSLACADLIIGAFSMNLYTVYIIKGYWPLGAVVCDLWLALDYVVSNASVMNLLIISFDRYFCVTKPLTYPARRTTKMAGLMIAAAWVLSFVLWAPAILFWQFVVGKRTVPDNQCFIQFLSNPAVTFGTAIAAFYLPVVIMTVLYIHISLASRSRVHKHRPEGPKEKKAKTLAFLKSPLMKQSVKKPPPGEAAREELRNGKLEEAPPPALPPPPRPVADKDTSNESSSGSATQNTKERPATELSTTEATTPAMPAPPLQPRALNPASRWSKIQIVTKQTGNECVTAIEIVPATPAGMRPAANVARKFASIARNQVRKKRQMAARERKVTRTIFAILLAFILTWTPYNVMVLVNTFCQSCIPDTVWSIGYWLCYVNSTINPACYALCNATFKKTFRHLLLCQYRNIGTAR
SMILES,inhibition
CC(=O)Nc1ncc(CN2CCC[C@H](Cc3cc(C)nc(C)c3)C2)s1,-5.53%
O=C(NCCCC1CCCCC1)c1ccc(CNC(=O)c2cnn(-c3ccccc3)c2C(F)(F)F)cc1,20.1%
CNC(=N)NCCC[C@H](NC(=O)[C@H](CC(C)C)NC(=O)NNC(=O)[C@H](Cc1ccccc1)NC(=O)[C@H](CO)NC(=O)[C@H](CC(N)=O)NC(=O)[C@@H](Cc1ccncc1)NC(=O)[C@H](N)Cc1ccc(O)cc1)C(=O)N[C@@H](Cc1ccccc1)C(N)=O,13.8%
CC(=O)N1CCC(c2ccc(C(=O)NC3=NCCN3)cc2C(F)(F)F)CC1,19.9%
C[C@H](c1ccc(F)cc1)N(Cc1cccc(C(=O)O)c1)C(=O)c1cnc2ccccc2c1,-13.1%
c1ccc(C2CCN(c3cnc4c(N5CCOCC5)nccn34)CC2)cc1,-5.45%
CCOc1ccc(S(=O)(=O)Nc2ccc(Cl)cc2C#Cc2cnc(C(=O)O)cc2OC)c2ncccc12,4.24%
Cn1nc(C(=O)NCc2ccc(C(=O)O)cc2)cc1-c1ccc2[nH]ccc2c1,0.05%
O=C(N[C@H]1CCCCC/C=C\C2C[C@@]2(C(=O)O)NC(=O)[C@@H]2C[C@@H](Oc3ccncc3)CN2C1=O)OC1CCCC1 (stereo partly drawn),9.48%
O=C(Nc1ccc(Oc2ccc(F)cc2)cc1)N1CCc2ncccc2[C@H]1c1ccc(F)cc1,9.29%
COc1cc(-c2cn(C3CCc4c(F)cccc4N(CC(F)(F)F)C3=O)nn2)ccc1-n1cnc(C)c1 (stereo not drawn),26.2%
COc1cc(N[C@@H]2CCCC[C@]2(O)C(F)(F)F)ccc1F,-3.95%
Cc1ccc(-c2cnc([C@@]3(O)CC[C@H](C(=O)O)C(C)(C)C3)s2)cc1Nc1cccc(C(F)(F)F)n1,20%
Nc1nc(NCc2ccccc2)nc(-c2ccccc2CO)n1,-9.42%

# Excerpt of the above (block 4):
SMILES,inhibition
CC(=O)N1CCC(c2ccc(C(=O)NC3=NCCN3)cc2C(F)(F)F)CC1,19.9%
C[C@H](c1ccc(F)cc1)N(Cc1cccc(C(=O)O)c1)C(=O)c1cnc2ccccc2c1,-13.1%
c1ccc(C2CCN(c3cnc4c(N5CCOCC5)nccn34)CC2)cc1,-5.45%
CCOc1ccc(S(=O)(=O)Nc2ccc(Cl)cc2C#Cc2cnc(C(=O)O)cc2OC)c2ncccc12,4.24%
Cn1nc(C(=O)NCc2ccc(C(=O)O)cc2)cc1-c1ccc2[nH]ccc2c1,0.05%
O=C(N[C@H]1CCCCC/C=C\C2C[C@@]2(C(=O)O)NC(=O)[C@@H]2C[C@@H](Oc3ccncc3)CN2C1=O)OC1CCCC1 (stereo partly drawn),9.48%
O=C(Nc1ccc(Oc2ccc(F)cc2)cc1)N1CCc2ncccc2[C@H]1c1ccc(F)cc1,9.29%
